Results collected from several papers.
Numbered parts are unrelated; each lists some results of a single study. Changes are numbered by the printed parent chain.

Sample 1
Target: Histone acetyltransferase KAT6A, both winged helices, GST fusion (KAT6A, Homo sapiens, UniProt Q92794, residues 1-181)
Technique: protein binding microarray
Form: double-stranded DNA, one strand shown
Matrix: in vitro
Tested at: not given
Setting: 8-mer, flanks averaged, mean of 2 arrays, mostly near background
Reference: not given
Reading: higher = stronger binding
Quantity: E-score
Target sequence (chain): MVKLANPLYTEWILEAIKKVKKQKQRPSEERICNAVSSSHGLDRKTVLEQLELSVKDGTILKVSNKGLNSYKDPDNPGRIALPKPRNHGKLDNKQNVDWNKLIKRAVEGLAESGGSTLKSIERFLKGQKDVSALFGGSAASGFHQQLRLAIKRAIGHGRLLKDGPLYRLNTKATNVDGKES
TAGTGGCA: -0.152
CCAGTATA: -0.207
GGTCAACA: -0.203
AAAACGAG: -0.00492
AGCCTATG: -0.113
AAACACGC: 0.232
ATCCATGC: -0.0557
CCCACACC: -0.125
AGCCTAAC: -0.0112
CTGTTGGA: -0.0421
CCCACTCA: -0.24
GGGCGCTA: 0.103
CGTCAGAC: 0.0134
AACCGCAG: 0.0784
AGGCTAGC: -0.147
AATGCGGT: 0.193
AACCTTGG: -0.102
AACCTCTC: -0.0456
AAGATCTA: -0.0598

Sample 2
Target: CCND2, cyclin fold, Cln2 fusion (human)
Technique: yeast growth competition, sequencing
Matrix: yeast
Setting: weak parent motif
Reference: not given
Reading: higher = stronger binding
Quantity: normalised enrichment score
Starting sequence: FOXM1 docking peptide (human); PHLARPIKVESPP; partner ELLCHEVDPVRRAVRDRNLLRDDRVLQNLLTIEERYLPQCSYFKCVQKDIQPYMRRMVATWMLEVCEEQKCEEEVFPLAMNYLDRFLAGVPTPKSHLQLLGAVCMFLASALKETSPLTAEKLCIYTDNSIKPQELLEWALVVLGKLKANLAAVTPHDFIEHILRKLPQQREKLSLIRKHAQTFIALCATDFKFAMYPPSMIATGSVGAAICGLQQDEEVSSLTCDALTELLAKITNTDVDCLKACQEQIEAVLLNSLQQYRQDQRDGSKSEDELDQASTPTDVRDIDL
PHLARPIKVEAPP [S11A]: -0.168
PHLARPIKVASPP [E10A]: -0.0082
PHAARPIKVESPP [L3A]: 0.248
PHLARPAKVESPP [I7A]: -0.1
PHLARPIKVESAP [P12A]: -0.74
PHLARAIKVESPP [P6A]: -0.225

Sample 3
Target: RNA binding protein fox-1 homolog 2, RRM domain, GST-SBP tag (RBFOX2, Homo sapiens, UniProt O43251-10, residues 100-194)
Technique: RNA Bind-n-Seq
Form: RNA
Matrix: in vitro
Tested at: 365 nM
Setting: natural RNA segment, single round, ends assumed
Reference: no-protein control
Reading: higher = stronger binding
Quantity: RBNS enrichment (R)
Constant ends, left off below: GGGAGUUCUACAGUCCGACGAUC … UGGAAUUCUCGGGUGCCAA
Target sequence (chain): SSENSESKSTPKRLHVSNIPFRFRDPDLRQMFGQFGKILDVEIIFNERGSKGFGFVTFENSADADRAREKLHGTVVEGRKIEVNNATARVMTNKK
UUGGUGCCAGUCCCUCAGUCCCACCUCUUUACUCGGACCAUGGACCCUGCCACUGCCAGCUCUUAGUACAGUCCCAACUACCGUAGACCAGGUGACAUUUGUUGACACCA: 0.425
UUGUGUUUUGGCAGCAUUUUAAGGCAUGGUGGUCCCUCAGGCUUUGAAAACGCCUCUUGCCUAUGUUAGUUACCCAUUCUCAACACUGGGCCAUGGCUGCAGAUGGAAUU: 0.481
UUUUGUUUUGUUUUCGGUUUAAAAACAACAACAAACUGUGUGCAUGCAGAAUACAGACCUUGAGGUUGGCUACUGUUCAAGACAGCUUCAGUCUCUCUACCACAUUCCAU: 5.46
UAAUAAAGGUGGUAGAUUUCAUUAAGGUUUUAGAUCAAAACUUUGAAUAAAUCAAAAACGUUCAUUCUAUUCUCUGCAACCCUUCUCAUAUUUUAUAGGUUUAGAUGGAA: 0.468
UGUUGAGAUUUCCAUGUGAGAACUGAUAAUCAGGCUCUUGAUCUGCUUCCCUAAAUUACUUUUUUAGAGCCCAAACCCCAGGUUUAGGGUGAGGGUUUGUAAUACAAAGA: 0.372
CCCAAAUGCAGCCCAUCGGGGAGUCACAGUCAGUCCCCCCGGCCCCCCUCCCAGUCCCUGUUGGCUUUCGGUAGCUCUCGCAUGCAGUUCUAUUAACAGCCGUCUAGAAG: 14.4
UGUUUGCUUAAACUGUGAUUUUUUUUCCCCUCCCUAAUUUCAGGGGUGAGAUUGACUUUGGGAAGACAGAUUAGUUCUUUGUCAGGCCAACAAGUGAUGGAGUGCGGGAG: 0.657
CCUCCCCUCGCUGCUGGGCCCCAUCUCCACAGGAGAGACUGGUUCAGCUCUAGGGCCUCAGUCUGGAGUGGGAUAGGAGCAGUGAGUGACAAAGCCUCUGAAAGAUGCAU: 0.255
CUCACUAGCUCGCGGGGCCACUUGCUGCCCAUGUGACGAAUAACAGAAGAUCUUAUCUUGCCAGGCCGUGGAGAGCUACAAGAAAGAUUCCUGAGAAAUGUCCAACUGCU: 1.66
CCUGCCUUCAUGUGGACCCUUAGAACAGCACUGGGAGACCAGCAGGACUCCUGAGAACUGUGCUGGUGGAGAGGUCCUAGAGCCGGCGAGCGUUUGAGAAGAGGGCAUGG: 0.459
CUGUUCUGACCUCAUGAGUGUCAAACGUGCCCCCCAGUUCCUUAGGAGAUGUCAUGACAACACUACACGCACCCAAUAAAGCGAAUGGACCAUCCAUGUGUGUCCCUGUG: 0.274
UAAAUGUGAUCAGGACUAUAAUAUUGUACAGUUAUUAUAGGGCUUUUGGGGAAGGGGAGGAUAGCGAGAAGAUGCUCUGGGGGUUUUGUUUUUGCUUUUCCUUCAGGGUU: 2.1

Sample 4
Target: Fragile X messenger ribonucleoprotein 1, C-terminal low-complexity region (Fmr1, Mus musculus, UniProt P35922)
Technique: RNA Bind-n-Seq
Form: RNA
Matrix: in vitro
Tested at: 200 nM
Setting: whole 134-nt RNA, ends assumed
With: 150 mM KCl
Reference: input library
Reading: higher = stronger binding
Quantity: log2 enrichment
Constant ends, left off below: GGGAGUUCUACAGUCCGACGAUC … UGGAAUUCUCGGGUGUCAAGG
ACCAUGCAGGUGGGCAGCUUUGGGAAGUGGGGCAAGGGGGGGAUAGGGAGGGGGGUAACACUUUGGGAACAGGUGGUCCCAGGUCGUUUC: 0.807
AAGUCCUGUGCUACACAUCGUAUGUACCGAAUCGGAAAGGAAAAAAAGGUUUUUGGAAAGUAUUAUGUUACGCCGUUCGGAUCUGCACUU: -1.25
UGCUGUGUCACCGGGAACGCAAAGGCUGGGAAGAAGGCCCUUCUCAAAAUGGACUGGUGUUGCAGGGUGAGAAGCUGCCCCCUGACUUCA: -0.368
UCAAGUCCUGUGCUACACAUCGUAUGUACCGAAUCGGGAGGGAGGGAAAAAGGGAAAGUAUUAUGUUACGCCGUUCGGAUCUGCACUUCC: 0.927
UAACUUUAGAGGAGGAUCUGAUGGAUAUGGCAGUGGACGUGGAUUUGGGGAUGGCUAUAAUGGGUAUCGAGGAGGACCUGGAGGUGGCAA: 0.172
CAAGUCCUGUGCUACACAUCGUAUGUACCGAAUCGGGGCCCGGGGCCCGGCCCGGGAAAGUAUUAUGUUACGCCGUUCGGAUCUGCACUU: -0.549
CUCAAGUCCUGUGCUACACAUCGUAUGUACCGAAUCGGGGUGGGUGGGUGGGGAAAGUAUUAUGUUACGCCGUUCGGAUCUGCACUUCCA: 0.262
ACCAUGCAGGUGGGCAUCUUUGGGAAGUGGGGGAAGGGGGGGAUAGGGAGGGGGGUAACACUUUGGGAACAGGUGGUCCCAGGUCGUUUC: 0.887
CCUCAAGUCCUGUGCUACACAUCGUAUGUACCGAAUCGGGUGGGAGGGUGGGAAAGUAUUAUGUUACGCCGUUCGGAUCUGCACUUCCAG: 0.795
ACCAUGCAGGUGAAAAUCUUUGGGAAGUGGGGCAAGGGGGGGAUAGGGAGGGGGGUAACACUUUGGGAACAGGUGGUCCCAGGUCGUUUC: 0.554

Repeated from above (sample 4):
ACCAUGCAGGUGGGCAUCUUUGGGAAGUGGGGGAAGGGGGGGAUAGGGAGGGGGGUAACACUUUGGGAACAGGUGGUCCCAGGUCGUUUC: 0.887
CCUCAAGUCCUGUGCUACACAUCGUAUGUACCGAAUCGGGUGGGAGGGUGGGAAAGUAUUAUGUUACGCCGUUCGGAUCUGCACUUCCAG: 0.795
UAACUUUAGAGGAGGAUCUGAUGGAUAUGGCAGUGGACGUGGAUUUGGGGAUGGCUAUAAUGGGUAUCGAGGAGGACCUGGAGGUGGCAA: 0.172
ACCAUGCAGGUGAAAAUCUUUGGGAAGUGGGGCAAGGGGGGGAUAGGGAGGGGGGUAACACUUUGGGAACAGGUGGUCCCAGGUCGUUUC: 0.554
